Published values pooled from the literature.
Lines come from different studies, so protocols differ. ± gives the spread as reported.

Compound | test | test system | setting | how to read | endpoint | result
O=C([O-])CN1CCN(CC(=O)[O-])CCN(CC(=O)NC[C@H]2CC[C@H](C(=O)N[C@H](Cc3cnc4ccccc4c3)C(=O)NCCCC[C@H](NC(=O)N[C@@H](CCC(=O)O)C(=O)O)C(=O)O)CC2)CCN(CC(=O)[O-])CC1.[64Cu+2] | PET/CT dosimetry OLINDA/EXM | healthy volunteers, testes | up to 24 h post-injection |  | absorbed dose | 0.0172 mGy/MBq
COc1cc(NC(C)=O)c2c(c1O)-c1c(OC)c(OC)cc3c1C(C2)N(C)CC3 (stereo not shown) |  | rat lung homogenate | 5 µg/mL, time not given, three freeze-thaw cycles |  | remaining compound | 99.9 ± 1.6%
O=C(NCCCN(CCCCN(CCCNC(=O)c1cccc(=O)n1[O-])C(=O)c1cccc(=O)n1[O-])C(=O)c1cccc(=O)n1[O-])c1cccc(=O)n1[O-].[89Zr+4] | radio-TLC | PBS | 7 d, pH 7.4, 37 °C, added: Fe^3+ 10-fold excess |  | intact complex | 83 ± 4.2%
O=C(O)[C@H]1O[C@@H](O[C@H](C[C@H]2c3c(F)cccc3-c3cncn32)[C@H]2CC[C@H](O)CC2)[C@H](O)[C@@H](O)[C@@H]1O |  | human, urine | oral, 200 mg, [14C]-navoximod dosed | reference: dose | urinary excretion | 59.7%
CC[C@H](C)[C@H](N)C(=O)N[C@@H](CC(C)C)C(=O)N1CCC[C@H]1C(=O)N[C@@H](Cc1c[nH]c2ccccc12)C(=O)N[C@@H](CCCCN)C(=O)N[C@@H](Cc1c[nH]c2ccccc12)C(=O)N1CCC[C@H]1C(=O)N[C@@H](Cc1c[nH]c2ccccc12)C(=O)N[C@@H](Cc1c[nH]c2ccccc12)C(=O)N1CCC[C@H]1C(=O)N[C@@H](Cc1c[nH]c2ccccc12)C(=O)N[C@@H](CCCNC(=N)N)C(=O)N[C@@H](CCCNC(=N)N)C(N)=O | fluorescence spectroscopy | 10 mM TES buffer | pH 7.4, excitation 295 nm |  | Trp emission maximum | 357 nm
Cc1ncnc(C)c1-c1ccc(C(=O)N2CC[C@H](C(=O)Nc3cc(F)c(F)c(F)c3)C2)[nH]1 |  | human liver microsomes | 1 µM |  | CLint | 6.3 µL/min/mg protein
N=C(N)NCCC[C@@H]1NC(=O)[C@H](Cc2c[nH]c3ccccc23)NC(=O)[C@@H](CC2CCCCC2)NC(=O)[C@@H]2CCCN2C(=O)[C@@H](NC(=O)CCc2ccccc2)CCCNC1=O | two-compartment model | C57BL/6J mice, brain | intravenous, 1 mg/kg |  | alpha rate constant | 27.1 h⁻¹
Cc1ccc(/N=N/c2c(O)ccc3ccccc23)c(C)c1 |  | rat whole blood | 16.0 µg/L, 30 days, -20 °C, long-term storage |  | measured concentration | 16.1 µg/L
C=CC(=O)Nc1cc(Nc2nccc(-c3cn(C4CC4)c4ccccc34)n2)c(OC)cc1N(C)CCNC | radiolabelled metabolite profiling | human male, plasma | oral, 110 mg, 2 h |  | plasma concentration | 8.88 ng/g
CC1=N[C@H](C)Cc2c(-c3ccc(C)cc3)ccc(O)c21 | metabolic stability | male CD-1 mouse, liver microsomes | 1 µM, 30 min |  | compound remaining | < 7%
O=C([O-])CN1CCN(CC(=O)[O-])CCN(CC(=O)[O-])CCN(CC(=O)[O-])CC1.[111In+3] |  | mouse serum | 24 h, 25 °C, added: 111In |  | radiometal bound to chelator | 89%
CC(=O)N1CCC(NC(=O)Nc2ccc(OC(F)(F)F)cc2)CC1 |  | male C57BL/6J sEH knockout mice, whole blood | subcutaneous, 1 mg/kg, added: TPPU 0.3 mg/kg |  | time to full blood elimination | ≤ 144 h
O=[11C](N1CCC(CNS(=O)(=O)c2ccc(Cl)cc2)CC1)n1cncn1 | PET | Sprague-Dawley rat, cerebellum | intravenous, dose not given, baseline |  | radioactivity uptake | 0.43 SUV
CCC/C(=C\C1=C(F)C(=O)c2ccccc2C1=O)C(=O)N(CC)CC |  | human liver S9 | 1 µM, phase II UGT conditions |  | CLint | 3.7 mL/min/kg
Cc1cc2c(cc1C1(c3ncc(C(=O)O)cn3)CC1)C(C)(C)CCC2(C)C |  | Sprague-Dawley rat, male, plasma | oral, 100 mg/kg, 1 h, sesame oil vehicle |  | HDL level | 81 ± 3.6 mg/dL
Cn1c(=O)oc2ccc(-c3ccc(CC(C#N)NC(=O)C4CNCCCO4)c(F)c3)cc21 (stereo not shown) | refers to: abdominal pain | human volunteers | oral, dose not given |  | treatment-emergent adverse event incidence | 3.7%

Some of these lines once more:
Compound | test | test system | setting | how to read | endpoint | result
O=[11C](N1CCC(CNS(=O)(=O)c2ccc(Cl)cc2)CC1)n1cncn1 | PET | Sprague-Dawley rat, cerebellum | intravenous, dose not given, baseline |  | radioactivity uptake | 0.43 SUV
CCC/C(=C\C1=C(F)C(=O)c2ccccc2C1=O)C(=O)N(CC)CC |  | human liver S9 | 1 µM, phase II UGT conditions |  | CLint | 3.7 mL/min/kg
